Experimental data from different studies.
Numbered parts are unrelated; each lists some results of a single study. Positions count from the first letter of the parent shown.

Set 1 — target: CRIPT, C-terminal peptide; technique: DHFR complementation, deep sequencing; medium: yeast; relative to: wild type; reading: higher = weaker binding
Setting: single substitutions, model-inferred values
Starting sequence: ERBIN, PDZ domain 1 (human); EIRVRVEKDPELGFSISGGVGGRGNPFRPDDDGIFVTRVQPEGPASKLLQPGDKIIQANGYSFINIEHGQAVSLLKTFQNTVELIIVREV; partner TKNYKQTSV
Change | binding free energy change [kcal/mol]
D30M | 0.258
Q57H | 0.0976
Q70D | -0.0238
P41F | 0.381
G60Y | 0.245

Set 2 — technique: RNA Bind-n-Seq; form: RNA; medium: in vitro; concentration: not given; setting: RNA with constant flanks, ends assumed; relative to: input RNA pool; reading: higher = stronger binding
Target: RING finger protein unkempt homolog, zinc fingers 1-6, GST-SBP tag (UNK, Homo sapiens, UniProt Q9C0B0, residues 30-357)
Target sequence (chain): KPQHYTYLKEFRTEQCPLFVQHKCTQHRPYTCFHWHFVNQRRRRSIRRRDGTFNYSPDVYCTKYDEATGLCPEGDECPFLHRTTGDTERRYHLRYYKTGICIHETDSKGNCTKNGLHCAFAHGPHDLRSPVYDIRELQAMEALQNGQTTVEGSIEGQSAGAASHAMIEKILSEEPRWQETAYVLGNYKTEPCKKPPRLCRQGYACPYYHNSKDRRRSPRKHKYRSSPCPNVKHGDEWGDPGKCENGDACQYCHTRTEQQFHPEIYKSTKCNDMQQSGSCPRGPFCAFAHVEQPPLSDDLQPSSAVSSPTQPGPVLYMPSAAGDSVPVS
Sequence | bound/input enrichment
GGGAGUUCUACAGUCCGACGAUCCAGCCGCUCCUGGUAUCAGAGCUGCUUUCCAGAGGGCAGCACAGCCAGGGCCGGGUGUCUUCCGGGAUCAGUUUUUCCAAGACUCCAGAAGGUGCCAGGUUCUCCCCUUGAGCUCCUGCUCAACAGAGGAUUGAGCAUCA | 0.0519 ratio
GGGAGUUCUACAGUCCGACGAUCCUAUGCCUAACAGAGCCCCAGUACAACUAUUUUGCAGAAUGGCUGUUACCCUAGAAUUACUACCGCACAUAUUGAGAUAUAGUUGUACUCCCUAGUAGAUAGGAACUGACCCCAACAAUACAACAGAGGAUUGAGCAUCA | 2.75 ratio
GGGAGUUCUACAGUCCGACGAUCUCAGAACACAAAAUCUUAUUUCUUGGAGCAGGAGAAGCUGCACUUGGAAUUGCCAAUCUCACCGUUCUAUCAAUGGUGGAAAGUGGUCUCUCAGAAGAGGAGGCGCAGAGAAAGAUCUGGCAACAGAGGAUUGAGCAUCA | 0.194 ratio
GGGAGUUCUACAGUCCGACGAUCAGAGUGCUGGGAUUAAAGCAGAUAUAAUUUCUACAGUAGAGUUUAAUCAUUCUGGAGAAUUACCCGCCACAGGAGAUAAAGGUGGGAGAGUUGUCAUCUUUCAACAAGAGCAGGAGAACACAACAGAGGAUUGAGCAUCA | 0.59 ratio

Single results of other studies
Molecule | tested on | assay | system | conditions | how to read | quantity | result
SNRPD1 (Homo sapiens, UniProt P62314) | SNRPD2 (Homo sapiens, UniProt P62316) | cross-linking MS | – | hits only | – | interaction screen | cross-linked
PhoQ, residues 284 288 289 292 302 303 SSTLSG | PhoP, residues 12 14 15 18 19 LHHVQ (Escherichia coli, UniProt P23836) | Sort-seq, measured: YFP reporter | E. coli | PhoQ-PhoP variant library, added: 10 µM Mg2+ | relative to: high Mg2+ state, higher = stronger signaling | fold induction | 0.464
RPN1 (Homo sapiens, UniProt P04843) | MLEC (Homo sapiens, UniProt Q14165) | cross-linking MS | cell fractions | added: DSSO | – | cross-linked residues | K176 to K246
FLOT1 (Homo sapiens, UniProt O75955) | EP400 (Homo sapiens, UniProt Q96L91) | cross-linking MS | cell fractions | added: DSSO | – | cross-linked residues | K198 to S1190

For quick reference, copied from above (single results of other studies):
Molecule | tested on | assay | system | conditions | how to read | quantity | result
PhoQ, residues 284 288 289 292 302 303 SSTLSG | PhoP, residues 12 14 15 18 19 LHHVQ (Escherichia coli, UniProt P23836) | Sort-seq, measured: YFP reporter | E. coli | PhoQ-PhoP variant library, added: 10 µM Mg2+ | relative to: high Mg2+ state, higher = stronger signaling | fold induction | 0.464
